# Measurements pooled from the literature.
# Numbered parts are unrelated; each lists some results of a single study.

# Series 1
# Target: Replicase polyprotein 1ab, polymerase (rep, Severe acute respiratory syndrome coronavirus 2, UniProt P0DTD1)
# Read-out: enzyme activity
# Action: inhibitor
# Concentration: 20 µM
Structure (SMILES),inhibition [%]
O=C(NC[C@H]1CN(c2ccc(N3CCOCC3=O)cc2)C(=O)O1)c1ccc(Cl)s1,-5.16
O=C(NC1CCNCC1)c1n[nH]cc1NC(=O)c1c(Cl)cccc1Cl,-5.05
O=C(NC(=O)c1c(F)cccc1F)Nc1cc(Cl)c(OC(F)(F)C(F)C(F)(F)F)cc1Cl (stereo not shown),-7.06
O=C1NCCNC1c1cccs1 (stereo not shown),3.08
C[C@]12CCC(=O)C=C1[C@@H]1C[C@@H]1[C@H]1[C@@H]3[C@@H]4C[C@@H]4[C@@]4(CCC(=O)O4)[C@@]3(C)CC[C@@H]12,-4.29
O=C(O)[C@H](Cc1ccc(Nc2nccc3ccncc23)cc1)NC1=C(Br)C(=O)C12CCCCC2,3.57
O=C(O)C(=O)c1cn(Cc2ccccc2)c2ccc(-c3ccc(OC(F)(F)F)cc3)cc12,-4.22
C[C@H](NC(=O)c1sccc1OCc1ccc(Cl)cc1)c1ccccc1,-1.74
Cc1cccc(-c2[nH]ncc2-c2ccc(F)c(-c3cnn(CCO)c3)c2)n1,4.68
CO[C@@H](C(=O)N1Cc2[nH]nc(NC(=O)c3ccc(N4CCN(C)CC4)cc3)c2C1)c1ccccc1,-0.24
Cn1cnc2[nH]c(=O)[nH]c(=O)c21,-2.08
O=C(/C=C/c1ccc2ccc(C(F)(F)F)cc2n1)c1ccncc1,0
NC(Cc1ccc(Cl)cc1)C(=O)O (racemic),-5.71
O=C1NCC2(CCN(CCc3ccccc3)CC2)O1,18
C[N+](C)(C)[C@@H](Cc1c[nH]c(=S)[nH]1)C(=O)[O-],-0.64
CC(c1cc2ccccc2s1)N(O)C(N)=O (stereo not shown),-1.01
C/C(=C\C(N)C(=O)O)CP(=O)(O)O (stereo not shown),3.54
NC(=O)CN1CC(c2ccccc2)CC1=O (stereo not shown),-7.24
CCc1nn(CCO)c(CC)c1Oc1cc(C#N)cc(C#N)c1,-1.76
BrC1C(Br)C(Br)C(Br)C(Br)C1Br (stereo not shown),2.84
COc1ccccc1N1CCN(CCCNc2cc(=O)n(C)c(=O)n2C)CC1,1.71
O=C(Nc1cccc(Cl)c1)Nc1ncc(CCNc2ncnc3ccsc23)s1,5.63
CCCCNNC(=O)c1ccc(Br)cc1,2.02
C[C@@H](Oc1cc(-n2cnc3ccc(CN4CCN(C)CC4)cc32)sc1C(N)=O)c1ccccc1C(F)(F)F,2.11
OCCN(CCO)c1nc(N2CCCCC2)c2nc(N(CCO)CCO)nc(N3CCCCC3)c2n1,7.86

# Series 2
# Target: Max-binding protein MNT, bHLH-zipper, MAX partner unstated (MNT, Homo sapiens, UniProt Q99583, residues 220-300)
# Technique: protein-binding microarray
# Form: double-stranded DNA, one strand shown
# Matrix: in vitro
# Concentration: not given
# Setting: k-mer, scored over probes, only values ≥0.25
# Direction: higher = stronger binding
# Target sequence (chain): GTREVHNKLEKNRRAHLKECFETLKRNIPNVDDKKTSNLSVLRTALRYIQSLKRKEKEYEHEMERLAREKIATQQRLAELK
Strand,E-score
ATGCGTTG,0.259
GCCCCAAC,0.314
CGTGTACC,0.385
ATGTGGCG,0.321
ACATGTGC,0.482
ATAGCATG,0.337

# Series 3
# Target: Fragile X messenger ribonucleoprotein 1, C-terminal low-complexity region (Fmr1, Mus musculus, UniProt P35922)
# Technique: RNA Bind-n-Seq
# Form: RNA
# Matrix: in vitro
# Concentration: 200 nM
# Setting: whole 134-nt RNA, ends assumed
# Together with: 150 mM KCl
# Reference: input library
# Direction: higher = stronger binding
# All sequences stand within: GGGAGUUCUACAGUCCGACGAUC … UGGAAUUCUCGGGUGUCAAGG
Strand,log2 enrichment
CCUGUGCUACACAUCGUAUGUACCGAAUCGGGAAAAAAAGGGUUUUUUUGGGUUUUUGGGAAAGUAUUAUGUUACGCCGUUCGGAUCUGC,-0.937
UGGCCCCGGUGGCAUGCGGGGAGGAAGAGGUGGCCUCAUGGAUCGUGGUGGUCCCGGUGGAAUGUUCAGAGGUGGCCGUGGUGGAGACAG,-0.102
UCCUGUGCUACACAUCGUAUGUACCGAAUCGGGGUGGGGUUUUUGGGGAAAAAAAGGGGAAAGUAUUAUGUUACGCCGUUCGGAUCUGCA,0.782
UGGAUUAGAGAGAAAUUGAAUUUUUUCUUACUUGAACUCCUACUAAAAAGUGAACUAAAUAUUUUAUUGUAGUAAUGGCAUAGAGGAGCC,-0.588
CUCAAGUCCUGUGCUACACAUCGUAUGUACCGAAUCGGGGCGGGGCGGGGCGGGAAAGUAUUAUGUUACGCCGUUCGGAUCUGCACUUCC,1.25
AAACUUUAGAGGAGGAUCUGAUGGAUAUGGCAGUGGACGUGGAUUUGGGGAUGGCUAUAAUGGGUAUGGAGGAGGACCUGGAGGUGGCAA,0.353
UCCUGUGCUACACAUCGUAUGUACCGAAUCAAACCCCCCCAAAUUUUUUUAAACCCAAAAAAGUAUUAUGUUACGCCGUUCGGAUCUGCA,0.302
UGGCCCUGGUGGCAUGCGGGGAGGAAGAGGUGGCCUCAUGGAUCGUGGUGGUCCCGGUGGAAUGGUCAGAGGUGGCCGUGGUGGAGACAG,0.148

# Series 4
# Organism: SARS-CoV-2
# Read-out: cytopathic effect
# Cell line: Vero E6
# Concentration: 10 µM
SMILES,inhibition
CN(C)C(=S)SSC(=S)N(C)C,-14.7%
[O-][S+](c1ccccc1)c1ccc2nnnn2n1 (stereo not shown),-39.1%
COc1cc(N(C)C)cc(CN(C)CCc2ccc([N+](=O)[O-])cc2)c1O,22.4%
O=C(C=Cc1ccc(O)c2c1C(C(=O)OC(Cc1ccc(O)c(O)c1)C(=O)O)C(c1ccc(O)c(O)c1)O2)OC(Cc1ccc(O)c(O)c1)C(=O)O (stereo not shown),-5.1%

# Series 5
# Cell line: HEK-293T
# Read-out: pseudovirus infection
# Technique: FDA-approved drug library screen
# Organism: VSV pseudotyped with SARS-CoV-2 spike
# Concentration: 10 µM
# Time: 16 h
# Reference: vehicle-treated
SMILES,GFP-positive cells
C=CC1=C(C(=O)O)N2C(=O)[C@@H](NC(=O)/C(=N\OCC(=O)O)c3csc(N)n3)[C@H]2SC1,81.6%
NS(=O)(=O)c1cc2c(cc1C(F)(F)F)NC(Cc1ccccc1)NS2(=O)=O (stereo not shown),82.6%
Nc1ccc(O)c(C(=O)O)c1,61%
CN(C)c1nc(N(C)C)nc(N(C)C)n1,77.7%

# Series 6
# Target: RING finger protein unkempt homolog, zinc fingers 1-6, GST-SBP tag (UNK, Homo sapiens, UniProt Q9C0B0, residues 30-357)
# Sequence of UniProt Q9C0B0 (30-357, looked up): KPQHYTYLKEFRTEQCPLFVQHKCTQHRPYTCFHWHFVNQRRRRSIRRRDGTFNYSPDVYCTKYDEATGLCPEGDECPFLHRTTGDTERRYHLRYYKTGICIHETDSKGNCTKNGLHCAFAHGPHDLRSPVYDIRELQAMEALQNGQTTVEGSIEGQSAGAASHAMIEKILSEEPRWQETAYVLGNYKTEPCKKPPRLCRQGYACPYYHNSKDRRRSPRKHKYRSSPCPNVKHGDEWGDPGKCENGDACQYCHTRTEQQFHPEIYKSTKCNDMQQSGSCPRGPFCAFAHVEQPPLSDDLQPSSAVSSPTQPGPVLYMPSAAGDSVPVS
# Technique: RNA Bind-n-Seq
# Form: RNA
# Matrix: in vitro
# Concentration: not given
# Setting: RNA with constant flanks, human and mouse sites, ends assumed
# Reference: input RNA pool
# Direction: higher = stronger binding
# All sequences stand within: GGGAGUUCUACAGUCCGACGAUC … CAACAGAGGAUUGAGCAUCA
Strand,bound/input enrichment
CUGCUCCGCUACCAACCCCGCAGUGAGGAGGAACUGUUUGAUAUUCUCAAUUUGUUGGACAGCUAUCUCAAGAGCAGCAGUACUGGCGUGGUGAUGGGAGCCACCAAACUCUUUCUGAUU,0.152 ratio
CGCAGAAGGCGUGCGAUUCUUCCAGCAGAUAUGAAGAUUAUUCAGAGCUGGGAGAGCUUCCCCCACGAUCUCCUUUAGAACCAGUUUGUGAAGAUGGGCCCUUUGGCCCCCCACCAGAGG,0.578 ratio
CAUUAAUUUUAAAUUAAGUAAACUAAAUAAAUAAAAAUAAACUUUUUUAAAGAUGUGUGGUUUAGGAUGGGCUUUAAGAAAGUGAGUCUACCAAAUGCCAGUUAAAGAGCAAGUUAGGGG,2.13 ratio
CAUUUUAUUCCAAGAUGUUUUAUCUUUUAUGUUAAGAGAUCAAAGCUUAUAAUUUUCUUUUUUAAUUUUUGAAGGAGGGAUCAACUCCAGUUUCCAAUGUCUAUGUGUCUAUGUGUGUAU,2.54 ratio
GAUGUUGGUUGACCAUAAUUUGCAACAUUGUCUCAUUAAAAAUAAACUUUCAUAUUCAUAUUUGGUAGAACUGUUAACCUAGAAAUGUAGCUUGCUAAUAAGAUAGAAUGAUACAAAAGU,9.12 ratio
AAGAAAUGAUCAAAAGAUGAAAAAAGUUGCAAAAAUAUUAAGUCAAGAAAAAACAACUCUUCAGAAGAUCAAUGAUUGGAUAAAAUUAAAAAGUGACAUGUAUGAAGGCCUUCCAUUUUU,0.242 ratio
GCACUGUUUUCUGAUGAUGAUGAUGAUGAUGAAGAAGAAGAUGCAGUGAAUCUUGAACCAUUUAUUUCUGCAUUCCGUGAGGCUGAAAAAAUUGCCAAGGAACUAAAACGCAAACCUGGC,0.203 ratio
UCCAUUGCCACCCUCUUGGUAUGGAUUGUAAUUGGAUUUCUGAAUUUUGAAAUUGUGGAAACCUACUUUCCUGGCUACAAUAGAAGUAUCUCCCGAACAGAAACGAUAAUACGAUUUGCU,0.493 ratio

# Repeated from above (series 2):
Strand,E-score
ACATGTGC,0.482
ATAGCATG,0.337
GCCCCAAC,0.314
ATGTGGCG,0.321
ATGCGTTG,0.259
